Measured values of several laboratories.
A part holds a random share of what one study measured.

Set 1
Target: Centromere-binding protein 1, full length, N-terminal tag (CBF1, Saccharomyces cerevisiae, UniProt P17106, residues 1-351)
Chain of UniProt P17106 (whole entry, looked up): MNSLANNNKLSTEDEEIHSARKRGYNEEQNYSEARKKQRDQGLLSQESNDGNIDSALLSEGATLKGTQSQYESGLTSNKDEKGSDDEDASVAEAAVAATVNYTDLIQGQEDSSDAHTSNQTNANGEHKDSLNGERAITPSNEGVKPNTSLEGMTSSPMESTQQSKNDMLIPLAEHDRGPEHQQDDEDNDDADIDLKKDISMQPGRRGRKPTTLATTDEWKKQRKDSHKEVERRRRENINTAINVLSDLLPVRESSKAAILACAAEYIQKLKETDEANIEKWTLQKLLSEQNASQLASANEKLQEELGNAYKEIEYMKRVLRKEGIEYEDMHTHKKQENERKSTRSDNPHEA
Method: protein-binding microarray
Molecule type: double-stranded DNA, one strand shown
Matrix: in vitro
Tested at: 0.8 µM
Setting: whole 60-bp probe, no competitor
Direction: higher = stronger binding
Measurement: fluorescence intensity
CTATGTTGGTAACGGCACATGATATGCCAATATTTCGTCTTGATTCGCTTGACGCTGCTG: 1240 a.u.
CTATACGATTATATTGACGTGATAAAAAGATTATTCGTCTTGATTCGCTTGACGCTGCTG: 583 a.u.
GAAATTACGACACCATGTCTGATGCATTTTAGATAGGTCTTGATTCGCTTGACGCTGCTG: 530 a.u.

Set 2
Target: Interferon regulatory factor 5, full length, phosphomimetic (IRF5, Homo sapiens, UniProt Q13568-2, residues 1-514, K96S/S451D/S453D/S456D/S462D)
Method: protein-binding microarray
Molecule type: double-stranded DNA, one strand shown
Matrix: in vitro
Tested at: 250 nM
Setting: 60-bp whole probe
Added: salmon DNA 0.4 mg/ml
Baseline: random background probes
Direction: higher = stronger binding
Measurement: log fluorescence
GCCTAGCACGACGATTTCGGTACTGGAGACGTGCTAGTCTTGATTCGCTTGACGCTGCTG: 5.96 z-score
GCCTAGCACATTGTCTTCCCCATCTTGTTGTGCTAGGTCTTGATTCGCTTGACGCTGCTG: 0.2 z-score
GCCTAGCACTTAGGTCTCGGACTGCGTTAGTGCTAGGTCTTGATTCGCTTGACGCTGCTG: -0.233 z-score
GCCTAGCACCTGCTAGGGCACACAAGTCAGTGCTAGGTCTTGATTCGCTTGACGCTGCTG: -0.92 z-score

Set 3
Target: Histone acetyltransferase KAT6A, winged helix 1, GST fusion (KAT6A, Homo sapiens, UniProt Q92794, residues 1-85)
Method: protein binding microarray
Molecule type: double-stranded DNA, one strand shown
Matrix: in vitro
Tested at: not given
Setting: 8-mer, flanks averaged, mean of 2 arrays, mostly near background
Baseline: not given
Direction: higher = stronger binding
Measurement: E-score
Target sequence (chain): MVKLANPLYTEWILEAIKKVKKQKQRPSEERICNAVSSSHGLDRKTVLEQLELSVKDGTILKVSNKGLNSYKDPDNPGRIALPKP
AACTTCGC: 0.0685
ATCAGACG: 0.0208
GTGCAAGA: -0.0167

Further values, each from its own experiment
PhoQ, residues 284 288 289 292 302 303 TTSMTC
fold induction (PhoP, residues 12 14 15 18 19 LHSVQ (Escherichia coli, UniProt P23836); Sort-seq, measured: YFP reporter; E. coli; PhoQ-PhoP variant library, added: 10 µM Mg2+; baseline: high Mg2+ state, higher = stronger signaling): 6.55

For quick reference, copied from above (set 1):
CTATACGATTATATTGACGTGATAAAAAGATTATTCGTCTTGATTCGCTTGACGCTGCTG: 583 a.u.
